Measured values gathered from unrelated publications.
± marks the error that the study gave.

Structure (SMILES) | cell line | test | system | conditions | how to read | quantity | result
CC(=O)N[C@H]1C(n2cc([C@@](C)(O)c3cccc(F)c3)nn2)O[C@H](COCc2ccccc2)[C@H](OCc2ccccc2)[C@@H]1OCc1ccccc1 (stereo partly shown) | JEG-3 | qPCR, refers to: p53, HDM2, p21, MIC-1 | – | 100 µM, 6 h | relative to: vehicle | mRNA level | increased
O=C(c1ccc2ccccc2c1)c1cn(-c2ccccc2)nc1C1=Nn2c(Cc3nnc4n3N=C(c3nn(-c5ccccc5)cc3C(=O)c3ccc5ccccc5c3)CS4)nnc2SC1 | MCF7 cells | annexin V/PI flow cytometry | – | IC50, 48 h | – | late apoptotic cells | 23.5%
Cc1c(C)c(C)[c-](C)c1C.O=C1c2cccc[n+]2[Ir]([Cl])[N]1CCCCCCCCCC[P+](c1ccccc1)(c1ccccc1)c1ccccc1.[Br-] | SH-SY5Y | SRB | – | concentration not given, 3 h, together with: MPP+ 1 mM 24 h | relative to: MPP+ alone | cell viability | 1.3 fold
CN(C)c1cc2ccccc2c(N)n1 | LX-2 | western blot | – | concentration not given, 6 h pre-treatment, together with: TGF-β1 5 ng/mL for 24 h | – | collagen I protein level | inhibited
COc1ccc(-c2cc(C(F)(F)F)nc(SCC(=O)N(C)c3ccccc3)n2)cc1 | NG108-15 | refers to: cAMP | – | 25 µM, together with: secretin(3-27) | – | efficacy | 20%
COc1cc(CNC(=O)C[C@H](C)CCC=C(C)C)ccc1OCc1cn(-c2ccc(Br)cc2)nn1 | A549/ATCC | SRB | – | 10 µM, 48 h | – | growth | 78.6%
CCCCCCCCCC[N]1C(=O)c2cccc[n+]2[Ir]1[Cl].Cc1c(C)c(C)[c-](C)c1C | SH-SY5Y | SRB | – | concentration not given, together with: 4-hydroxynonenal 150 µM | relative to: 4-hydroxynonenal alone | cell viability | 1.2 fold
COc1cc(CNC(=O)C[C@H](C)CCC=C(C)C)ccc1OCc1cn(-c2ccc(Cl)cc2Cl)nn1 | A549/ATCC | SRB | – | 10 µM, 48 h | – | growth | 59.4%
CCC(=O)N(C)c1ccc(Cl)c(Cl)c1 | mouse splenocytes | – | – | 400 µM, 48 h, together with: anti-CD3/CD28 | relative to: vehicle | live CD3+ T cells | 63%
O=Cc1c(O)ccc2ccccc12 | HUVEC | RNA sequencing, refers to: CHAC1 | – | 75 µM, 24 h | relative to: DMSO | log2 fold change | 3.25
Cc1ccc([N+](=O)[O-])cc1S(=O)(=O)N(C)/N=C/c1cnc2ccc(Br)cn12 | HuT78 | PI3K signalling, NanoString, pathway analysis | – | 50 nM, 10 h | direction not given | activation z-score | -3.11
COc1cc(CNC(=O)C[C@H](C)CCC=C(C)C)ccc1OCc1cn(-c2ccc([N+](=O)[O-])cc2)nn1 | MCF7 breast cancer cells | SRB | – | 10 µM, 48 h | – | growth percent | 64%
Cc1nn(-c2ccc(S(=O)(=O)N[C@@H](CO)CC(C)C)cc2)c2nn3nnnc3nc12 | PC-3 | DNA damage, alkaline comet | – | 1 µM, 24 h | – | tail DNA | 49.5 ± 4.28%
FC(F)(F)c1ccnc(-c2cc(C(F)(F)F)ccn2)c1.FC(F)(F)c1ccnc(-c2cc(C(F)(F)F)ccn2)c1.[Cl-].[Cl-].[Ru+2].c1csc(-c2ccc(-c3ccc(-c4nc5c6cccnc6c6ncccc6c5[nH]4)s3)s2)c1 | SK-MEL-28 | cell viability | – | hypoxia 1% O2, together with: green light | relative to: dark EC50 over light EC50 | mean phototherapeutic index | 270
CO[C@@H]1[C@@H](O[C@@H]2O[C@H](C)[C@@H](O[C@H]3C[C@@](C)(O)[C@@H](OC(=O)CC(C)C)[C@H](C)O3)[C@H](N(C)C)[C@H]2O)[C@@H](CC=O)C[C@@H](C)[C@@H](O[C@H]2CC[C@H](N(C)C)[C@@H](C)O2)/C=C/C=C/C[C@@H](C)OC(=O)C[C@H]1O | GES-1 and HGC-27 | cell growth, CCK-8 | – | 72 h | relative to: IC50 GES-1 over HGC-27 | selectivity index | 2.29
COc1cc(CNC(=O)C[C@H](C)CCC=C(C)C)ccc1OCc1cn(-c2ccc(F)cc2)nn1 | A549/ATCC | SRB | – | 10 µM, 48 h | – | growth | 76.8%
[Cl][Au].[Se]=c1n(C23CC4CC(CC(C4)C2)C3)ccn1C12CC3CC(CC(C3)C1)C2 | LoVo MDR | MTT | – | – | relative to: LoVo MDR over LoVo | resistance factor | 1.3
COc1ccc(CC2COC(=O)C2Cc2ccc3c(c2)OCO3)cc1OC (mixture of isomers) | A2780cis | – | – | IC50, 72 h | – | colony formation | ~80%
CC(=O)OC[C@H]1O[C@@H](Sc2sc(C(=O)c3ccc(C)cc3)c(N)c2-c2nc3ccccc3s2)[C@H](OC(C)=O)[C@@H](OC(C)=O)[C@H]1OC(C)=O | OVCAR-8 | SRB | – | 10 µM, 48 h | relative to: untreated | growth | 73.6%
CC(C)C[C@@H](OC(=O)[C@@H](NC(=O)[C@H](C)OCc1ccccc1)C(C)C)C(=O)N[C@@H](C(=O)O)C(C)C | P388 | cell growth | DMSO | – | – | ED50 | > 10 µg/mL
CC(=O)N[C@H](C(=O)N[C@H](C(=O)N[C@@H](CCCNC(=N)N)C(=O)N1Cc2ccccc2C[C@H]1C(=O)N[C@@H](Cc1ccccc1)C(N)=O)C1CCCCC1)C(C)C | MBP-specific BC-3 T cells | Bio-Plex multiplex, refers to: IL-17 | – | 200 µg/mL, 24 h, together with: MBP87-99 antigen | – | cytokine level | 11 ± 1.2 pg/mL
COc1cc(CNC(=O)C[C@H](C)CCC=C(C)C)ccc1OCc1cn(-c2ccccc2)nn1 | IGROV-1 ovarian cancer cells | SRB | – | 10 µM, 48 h | – | growth percent | 88.8%
CO[C@@H]1[C@@H](O[C@@H]2O[C@H](C)[C@@H](O[C@H]3C[C@@](C)(O)[C@@H](OC(=O)Nc4ccc(C(F)(F)F)cc4)[C@H](C)O3)[C@H](N(C)C)[C@H]2O)[C@@H](CC=O)C[C@@H](C)[C@@H](O[C@H]2CC[C@H](N(C)C)[C@@H](C)O2)/C=C/C=C/C[C@@H](C)OC(=O)C[C@H]1O | GES-1 and HGC-27 | cell growth, CCK-8 | – | 72 h | relative to: IC50 GES-1 over HGC-27 | selectivity index | 3.77
O=C(NCC1(c2nc(-c3ccccc3)cs2)CCOCC1)c1cccc(-c2noc(C(F)(F)F)n2)c1 | DHL6 | RNA sequencing | – | 3 µM, 12 h | – | upregulated genes | 210 genes
COc1cc(CNC(=O)C[C@H](C)CCC=C(C)C)ccc1OCc1cn(-c2ccccc2Cl)nn1 | 786-0 | SRB | – | 10 µM, 48 h | – | growth | 87.7%
CC(C)c1cnn2c(NCc3ccccc3)cc(N[C@@H](CO)[C@H](O)CO)nc12 | HCT-116 resistant to compound | ABCB1 efflux function, calcein-AM | – | concentration not given | relative to: parental HCT-116 | intracellular calcein decrease | 1.5 fold
COc1cc(CNC(=O)C[C@H](C)CCC=C(C)C)ccc1OCc1cn(-c2cccc(C(F)(F)F)c2)nn1 | MDA-MB-231/ATCC | SRB | – | 10 µM, 48 h | – | growth | 87.2%
COc1ccc(CC[C@H]2OC(=O)[C@@H]3CCCCN3C(=O)C(=O)C(C)(C)COC(=O)/C=C/CCN(C)C(=O)[C@H](CC(C)C)N(C)C(=O)[C@@H]3CCCN3C(=O)[C@H](Cc3ccccc3)N(C)C(=O)[C@H](c3ccccc3)NC(=O)CCC(=O)Nc3cccc2c3)cc1OC | HEK293T | inhibitor, [3H]-thymidine uptake | – | concentration not given | – | thymidine uptake | inhibited

For quick reference, copied from above:
Structure (SMILES) | cell line | test | system | conditions | how to read | quantity | result
COc1cc(CNC(=O)C[C@H](C)CCC=C(C)C)ccc1OCc1cn(-c2ccccc2Cl)nn1 | 786-0 | SRB | – | 10 µM, 48 h | – | growth | 87.7%
COc1cc(CNC(=O)C[C@H](C)CCC=C(C)C)ccc1OCc1cn(-c2ccc([N+](=O)[O-])cc2)nn1 | MCF7 breast cancer cells | SRB | – | 10 µM, 48 h | – | growth percent | 64%
Cc1ccc([N+](=O)[O-])cc1S(=O)(=O)N(C)/N=C/c1cnc2ccc(Br)cn12 | HuT78 | PI3K signalling, NanoString, pathway analysis | – | 50 nM, 10 h | direction not given | activation z-score | -3.11
